Measurements gathered from unrelated publications.
A part holds a random share of what one study measured.

Set 1
Target: Prothrombin, mature alpha-thrombin (F2, Homo sapiens, UniProt P00734)
Technique: aptamer microarray, sandwich
Form: DNA with 2'F-ANA
Medium: in vitro
Tested at: 200 nM
Setting: whole 15-mer aptamer, many near background
With: Cy3 exosite-II aptamer, 400 nM
Direction: higher = stronger binding
Endpoint: mean fluorescence intensity
Sequence: GGTTGGTGTGGTTGG
Modification = 2'F-ANA at 1 2 3 6 7 8 11 15; result = 192 a.u.
Modification = 2'F-ANA at 2 4 5 7 8 10 11 12 15; result = 53.2 a.u.
Modification = 2'F-ANA at 2 3 4 5 6 8 9 10 13; result = 55.1 a.u.
Modification = 2'F-ANA at 1 2 6 7 14; result = 52 a.u.
Modification = 2'F-ANA at 3 7 9 10 11 12 13 15; result = 545 a.u.
Modification = 2'F-ANA at 3 5 7 8 9 10 13 14; result = 53.5 a.u.
Modification = 2'F-ANA at 6 7 14; result = 203 a.u.

Set 2
Target: Sal-like protein 4, full length isoform A (SALL4, Homo sapiens, UniProt Q9UJQ4, residues 1-1053)
Sequence of UniProt Q9UJQ4 (whole entry, looked up): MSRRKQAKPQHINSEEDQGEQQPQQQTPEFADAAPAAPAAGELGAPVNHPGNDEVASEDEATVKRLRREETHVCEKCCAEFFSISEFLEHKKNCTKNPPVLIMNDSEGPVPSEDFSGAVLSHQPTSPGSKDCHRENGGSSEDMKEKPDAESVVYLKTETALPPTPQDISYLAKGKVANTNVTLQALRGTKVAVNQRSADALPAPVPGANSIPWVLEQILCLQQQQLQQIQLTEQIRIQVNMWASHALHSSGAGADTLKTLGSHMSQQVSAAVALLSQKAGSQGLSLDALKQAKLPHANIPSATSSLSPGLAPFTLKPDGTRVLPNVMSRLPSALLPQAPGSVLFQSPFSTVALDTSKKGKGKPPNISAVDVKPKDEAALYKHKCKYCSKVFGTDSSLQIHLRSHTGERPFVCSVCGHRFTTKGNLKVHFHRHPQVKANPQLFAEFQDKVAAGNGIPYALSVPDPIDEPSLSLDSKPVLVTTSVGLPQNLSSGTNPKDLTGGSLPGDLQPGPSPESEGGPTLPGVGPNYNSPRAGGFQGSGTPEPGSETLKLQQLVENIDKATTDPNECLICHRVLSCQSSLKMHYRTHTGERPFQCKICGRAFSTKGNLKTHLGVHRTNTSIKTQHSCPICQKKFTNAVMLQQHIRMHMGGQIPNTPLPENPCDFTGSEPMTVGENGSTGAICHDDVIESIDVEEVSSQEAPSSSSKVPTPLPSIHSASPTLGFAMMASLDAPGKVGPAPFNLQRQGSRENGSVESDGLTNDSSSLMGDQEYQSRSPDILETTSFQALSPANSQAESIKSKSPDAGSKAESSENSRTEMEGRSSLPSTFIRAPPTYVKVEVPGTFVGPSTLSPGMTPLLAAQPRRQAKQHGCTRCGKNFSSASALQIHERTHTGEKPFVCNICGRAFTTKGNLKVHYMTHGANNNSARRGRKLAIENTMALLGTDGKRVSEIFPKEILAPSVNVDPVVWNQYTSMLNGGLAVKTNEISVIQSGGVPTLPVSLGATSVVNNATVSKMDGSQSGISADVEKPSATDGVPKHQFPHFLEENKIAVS
Technique: universal PBM
Form: double-stranded DNA, one strand shown
Medium: in vitro
Tested at: 600 nM
Setting: 8-mer, flanks averaged, mean of replicates
Direction: higher = stronger binding
Endpoint: E-score
Sequence = CACCCGCG; result = -0.244
Sequence = GTTCGCTA; result = 0.0489
Sequence = ATCATCCC; result = 0.0699
Sequence = GGGCGCAA; result = -0.167
Sequence = GTCCTCTA; result = -0.11
Sequence = GATTACGC; result = 0.0952

Set 3
Target: Centromere-binding protein 1, full length, N-terminal tag (CBF1, Saccharomyces cerevisiae, UniProt P17106, residues 1-351)
Sequence of UniProt P17106 (whole entry, looked up): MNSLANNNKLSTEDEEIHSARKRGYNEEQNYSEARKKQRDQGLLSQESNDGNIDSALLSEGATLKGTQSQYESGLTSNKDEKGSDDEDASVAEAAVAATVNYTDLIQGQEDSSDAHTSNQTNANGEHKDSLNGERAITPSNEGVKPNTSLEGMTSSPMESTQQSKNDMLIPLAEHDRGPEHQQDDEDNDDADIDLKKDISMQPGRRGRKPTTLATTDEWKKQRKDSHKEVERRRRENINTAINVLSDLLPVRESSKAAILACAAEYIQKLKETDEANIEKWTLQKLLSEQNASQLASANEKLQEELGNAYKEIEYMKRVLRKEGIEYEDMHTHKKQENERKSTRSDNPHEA
Technique: protein-binding microarray
Form: double-stranded DNA, one strand shown
Medium: in vitro
Tested at: 0.8 µM
Setting: whole 60-bp probe, no competitor
Direction: higher = stronger binding
Endpoint: fluorescence intensity
Shared flanks, not repeated: … GTCTTGATTCGCTTGACGCTGCTG
Sequence = GAATCTTGTTAAGATTACATCAGCACTAACAAATAG; result = 516 a.u.
Sequence = CTATGAATTATCCGTGATGGCAGCGTACAATCCTTC; result = 568 a.u.
Sequence = CTATCTGCTCCGCATCACGATACACGAGGTGCATTC; result = 1370 a.u.
Sequence = CTATGCGAACCACTTGGTCAGGTGCGGTACGTATTC; result = 1920 a.u.
Sequence = CTATTGGCTATGAACCACGCGTCATTAATGTGTTTC; result = 599 a.u.

Further values, each from its own experiment
Molecule = PhoQ, residues 284 288 289 292 302 303 TSTLRA; target = PhoP, residues 12 14 15 18 19 NYFRM (Escherichia coli, UniProt P23836); assay = Sort-seq, measured: YFP reporter; test system = E. coli; conditions = PhoQ-PhoP variant library, with: 10 µM Mg2+; scale = baseline: high Mg2+ state, higher = stronger signaling; endpoint = fold induction; result = 11.5

For quick reference, copied from above (set 3):
Sequence = CTATGCGAACCACTTGGTCAGGTGCGGTACGTATTC; result = 1920 a.u.
